Assay results gathered from unrelated publications.
Protocols differ between the studies behind these lines. Several values in a cell are separate wells, animals, samples, runs or records. ± marks the error that the study gave. In brackets after ≈: the same amount, converted by molar mass.

`O=S(=O)(c1ccc(-c2ccc3ncnc(Nc4ccccc4)c3c2)cc1)N1CCOCC1` gave an EC50 of greater than 4 µM (Leishmania major; parasite growth, resazurin; promastigote).
For `CC(=O)OC[C@H]1O[C@@H](Sc2sc(C(=O)c3ccc(Br)cc3)c(N)c2-c2nc3ccccc3s2)[C@H](OC(C)=O)[C@@H](OC(C)=O)[C@@H]1OC(C)=O`, “viral titre reduction” read 30% (human adenovirus type 7; plaque reduction; non-toxic concentration).
`O=S(=O)(c1cccc(-c2ccc3ncnc(Nc4ccc(OCc5cccc(F)c5)c(Cl)c4)c3c2)c1)N1CCOCC1` gave an EC50 of greater than 15 µM (Leishmania major; parasite growth, resazurin; promastigote).
`CCCCCCCCCC(=O)N[C@@H](Cc1c[nH]c2ccccc12)C(=O)N[C@H](CC(N)=O)C(=O)N[C@@H](CC(=O)O)C(=O)N[C@@H]1C(=O)NCC(=O)N[C@@H](CCCNC(=O)OC2/C=C/CCCCC2)C(=O)N[C@@H](CC(=O)O)C(=O)N[C@H](C)C(=O)N[C@@H](CC(=O)O)C(=O)NCC(=O)N[C@H](CO)C(=O)N[C@@H]([C@H](C)CC(=O)O)C(=O)N[C@@H](CC(=O)c2ccccc2N)C(=O)O[C@@H]1C` (stereo partly shown): “peak heat flow” 0 µW (Staphylococcus aureus; planktonic bacterial growth, isothermal microcalorimetry; MRSA; 2.0 µg/mL, 24 h, 37 °C).
`CCN(CC)CCCNC(=O)CSc1c2c(nc3cc(Cl)ccc13)CCCC2` has an EC50 of 10 µM (Mus musculus; gene silencing, high-content imaging; LDR reporter GFP cells; retest, mean of two runs).
`COc1ccccc1NC(=O)OC1C(C)C(OC)C=COC2(C)Oc3c(C)c(O)c4c(c3C2=O)C2=NC3(CCN(CC(C)C)CC3)NC2=C(NC(=O)C(C)=CC=CC(C)C(O)C(C)C(O)C1C)C4=O` (stereo not shown) gave an MBC of 20 µM (≈ 19.1 µg/mL) (Mycobacteroides abscessus; ATCC 19977, caseum surrogate; 5 d, non-replicating).
The EC50 of `CC(C)(C)OC(=O)N1CCN(c2ccc(-c3ccc4ncnc(Nc5ccc(OCc6cccc(F)c6)c(Cl)c5)c4c3)cc2)CC1` is reported as greater than 3 µM (Leishmania major; parasite growth, resazurin; promastigote).
`CCc1nnc(NC(=O)c2cccc(C(=O)Nc3nnc(CC)s3)n2)s1` has an Emax of 26% (Mus musculus; gene silencing, high-content imaging; LDR reporter GFP cells; 30 h, retest run 2).
With `CC(C)n1ncc2c(C(=O)NC[C@@H](C)N)cc(C3CC3)nc21` the plaque reduction was 0% (Enterovirus D68; viral replication; RD, US/MO/14-18947; 100 nM).
For `CC1(C)[C@H](NC(=O)/C(=N\OCc2c(Cl)cccc2Cl)c2nsc(N)n2)C(=O)N1OS(=O)(=O)O`, the MIC was 4 µg/mL (≈ 7.42 µM) (Shigella flexneri; agar dilution; ATCC 12022, susceptible).
`COc1ccc(NC(=O)COc2cccc(OCC(C)C)c2)cc1` has an MIC50 of 2 µg/mL (≈ 6.07 µM) (Nakaseomyces glabratus; microbial growth, broth dilution; MY1381).
With `O=C(NN1C(=O)c2ccccc2NC1c1ccc([N+](=O)[O-])o1)c1ccc([N+](=O)[O-])cc1` (stereo not shown) the Emax was 119% (Mus musculus; gene silencing, high-content imaging; LDR reporter GFP cells; 30 h, retest run 2).
`CC(C)n1ncc2c(C(=O)NCC3CNC3)cc(C3CC3)nc21` has a plaque reduction of 0% and 0.83% (Enterovirus D68; viral replication; RD, US/MO/14-18947; 10 nM).
`CC(C)(C)NCC(SS(=O)(=O)O)c1ccccc1` (stereo not shown) — result for “female worms recovered”: 0 worms per mouse (Schistosoma mansoni; mice; 100 mg/kg, perfusion day 56).
`CC1(C)[C@H](NC(=O)/C(=N\OC2(C(=O)O)CCCC2)c2csc(N)n2)C(=O)N1OS(=O)(=O)O` has an MIC of 0.5 µg/mL (≈ 1.02 µM) (Shigella flexneri; agar dilution; ATCC 12022, susceptible).
For `COC(=O)c1cc(N(C)S(=O)(=O)c2ccc(OC)cc2)cc(N(C)S(=O)(=O)c2ccc(OC)cc2)c1`, the selectivity index was greater than 1.7 (Leishmania infantum; intracellular amastigote growth; U-937 macrophages and HeLa; relative to: IC50 HeLa over IC50 amastigotes).
`CC(C)n1ncc2c(C(=O)NCC(C)(C)N)cc(C3CC3)nc21` gave a plaque reduction of 17.6% and 23.3% (Enterovirus D68; viral replication; RD, US/MO/14-18947; 30 nM).
Under “log2 fold change”, `COC1CN([C@H]2CC[C@H]([C@@]3(C)Oc4c(Cl)cc(C(=O)NCc5c(SC)cc(C)[nH]c5=O)c(C)c4O3)CC2)C1` is recorded as 1.18 (RNA-seq, refers to: MDK; human, whole blood; dose not given, 24 h; relative to: pretreatment baseline).
For `C=C(NC(=O)c1csc(-c2nc3c(cc2O)-c2nc(cs2)C(=O)NC(C(C)O)C(=O)NC(=C(C)OC)c2nc(cs2)C(=O)NC2c4nc(cs4)C(=O)NC(COC(=O)c4c5c6c(cccc6n4O)COC(=O)C(OC4CC(C)(O)C(N(C)C)C(C)O4)C2OC5)c2nc-3cs2)n1)C(N)=O` (stereo not shown), the MIC50 was 0.0156 µg/mL (≈ 0.0109 µM) (Staphylococcus epidermidis; methicillin-resistant, 10 isolates; serum 0%).
For `C#CCNC(=O)C1(O/N=C(\C(=O)N[C@@H]2C(=O)N(OS(=O)(=O)O)C2(C)C)c2csc(N)n2)CC1`, the MIC was no more than 0.06 µg/mL (Proteus vulgaris; agar dilution; ATCC 29905 susceptible).
For `Cc1cc(N2CC[C@@](C#N)(C3(C)CC3)C2=O)cc(C(=O)NCc2cc(F)cc(-c3cnn(C)c3)c2)n1`, the parasitaemia was 1.11% (Plasmodium falciparum; Pf3D70087/N9, humanized SCID mouse; 10 mg/kg, 4-day test, day 3 post-infection).
`CN(C)CCCn1c2ccc([N+](=O)[O-])cc2c(=O)n1Cc1ccccc1` has an IC50 of 12.8 µM (Leishmania amazonensis; parasite growth, resazurin; promastigote).
With `CC[n+]1cccc2cc(/C=N/NC(=O)C(=O)N/N=C/c3ccc4c(ccc[n+]4CC)c3)ccc21` the ΔTm was 3.6 ± 0.2 °C (MYC parallel G4 DNA; FRET melting; 1 µM, DNA 0.2 µM, together with: duplex DNA competitor 10 µM).
With `COc1ccc(NC(=O)CSc2nc3c(oc4ccccc43)c(=O)n2Cc2ccco2)cc1Cl` the EC50 was 12.6 µM (Mus musculus; gene silencing, high-content imaging; LDR reporter GFP cells; confirmation, mean of two runs).
The EC50 of `O=S(=O)(c1ccc(-c2ccc3ncnc(Nc4ccc(OCc5cccc(F)c5)c(Cl)c4)c3c2)cc1)N1CCNCC1` is reported as greater than 15 µM (Leishmania major; parasite growth, resazurin; promastigote).
`CC[n+]1cccc2cc(/C=N/NC(=O)c3cncc(C(=O)N/N=C/c4ccc5c(ccc[n+]5CC)c4)n3)ccc21` has a ΔTm of 1.8 ± 0.1 °C (hp2 hairpin duplex DNA; FRET melting; 1 µM).
With `C[C@@H]1C(=O)O[C@@H](C)/C=C/C=C\[C@@H](C)[C@@H]2C=C[C@@H]3C[C@@]4(C)O[C@H]4[C@@H](C)[C@H]3[C@@H]2C(=O)C(Cl)(Cl)C1=O` the MIC was 0.2 µg/mL (≈ 0.404 µM) (Staphylococcus aureus; MRSA clinical isolate; resistant: OXA,DOX,TET).
The EC50 of `Fc1cccc(COc2ccc(Nc3ncnc4ccc(-c5ccc(CN6CCOCC6)cc5)cc34)cc2Cl)c1` is reported as 2.7 µM (Leishmania major; parasite growth, resazurin; promastigote).
`CN(C)CCNC(=O)c1cccn2c(=O)c3cc4ccccc4cc3nc12` — result for “downregulated G4-containing genes”: 8 genes (Trypanosoma brucei; RNA-seq; Lister 427 bloodstream form; 2 × EC50, 4 h, ChIP-seq G4 peak overlap).
`O=C(N/N=C/c1ccccn1)c1cc(-c2ccc(Cl)cc2)nc2ccccc12` has an AC50 of 10 µM (Mus musculus; gene silencing, high-content imaging; LDR reporter GFP cells; retest run 2).
`CC1(C)[C@H](NC(=O)/C(=N\OC2(C(=O)O)CCCCC2)c2csc(N)n2)C(=O)N1OS(=O)(=O)O` has an MIC of 4 µg/mL (≈ 7.91 µM) (Shigella flexneri; agar dilution; ATCC 12022, susceptible).
`COc1ccc(Nc2ncnc3ccc(-c4ccc(S(=O)(=O)N5CCN(C)CC5)cc4)cc23)cc1Cl` gave an EC50 of 5.9 µM (Leishmania major; parasite growth, resazurin; promastigote).
`CC1(C)[C@H](NC(=O)/C(=N\OCCN)c2csc(N)n2)C(=O)N1OS(=O)(=O)O` gave an MIC of 2 µg/mL (≈ 4.73 µM) (Shigella flexneri; agar dilution; ATCC 12022, susceptible).
`O=C(O)CN1C(=O)[C@@H](Cc2ccccc2)NC2(C1=O)C1CC3CC(C1)CC2C3` (stereo partly shown) has an IC90 of 259 µM (Trypanosoma brucei; parasite growth; pH 7.4, blood stage).
For `COCC/N=C(\S)N/N=C(\C)c1ccccc1O`, the AC50 was 10 µM (Mus musculus; gene silencing, high-content imaging; LDR reporter GFP cells; retest run 1).
Under “viral titre reduction”, `CC(=O)OC[C@H]1O[C@@H](Sc2sc(C(=O)c3ccc(Cl)cc3)c(N)c2-c2nc3ccccc3s2)[C@H](OC(C)=O)[C@@H](OC(C)=O)[C@H]1OC(C)=O` is recorded as 0% (human adenovirus type 7; plaque reduction; non-toxic concentration).
`CCCCCOc1ccc(-c2ccc3ncnc(Nc4ccc(OCc5cccc(F)c5)c(Cl)c4)c3c2)c(F)c1F` has an EC50 of greater than 15 µM (Leishmania major; parasite growth, resazurin; promastigote).
With `COc1ccc2c(C)nc(Nc3nc(O)cc(-c4ccccc4)n3)nc2c1` the AC50 was 10 µM (Mus musculus; gene silencing, high-content imaging; LDR reporter GFP cells; retest run 1).
`Fc1cccc(COc2ccc(Nc3ncnc4ccc(-c5cccc(CN6CCCCC6)c5)cc34)cc2Cl)c1` has an EC50 of 2.5 µM (Leishmania major; parasite growth, resazurin; promastigote).
`Cc1ccc(/C=N/N=C(\S)Nc2cccc(S(=O)(=O)N(C)C)c2)o1` has an Emax of 50% (Mus musculus; gene silencing, high-content imaging; LDR reporter GFP cells; 30 h, retest run 2).

For quick reference, copied from above:
`CC[n+]1cccc2cc(/C=N/NC(=O)c3cncc(C(=O)N/N=C/c4ccc5c(ccc[n+]5CC)c4)n3)ccc21` has a ΔTm of 1.8 ± 0.1 °C (hp2 hairpin duplex DNA; FRET melting; 1 µM).
`CCN(CC)CCCNC(=O)CSc1c2c(nc3cc(Cl)ccc13)CCCC2` has an EC50 of 10 µM (Mus musculus; gene silencing, high-content imaging; LDR reporter GFP cells; retest, mean of two runs).
Under “log2 fold change”, `COC1CN([C@H]2CC[C@H]([C@@]3(C)Oc4c(Cl)cc(C(=O)NCc5c(SC)cc(C)[nH]c5=O)c(C)c4O3)CC2)C1` is recorded as 1.18 (RNA-seq, refers to: MDK; human, whole blood; dose not given, 24 h; relative to: pretreatment baseline).
